{"data": "Published values gathered from unrelated publications", "target": "Mitogen-activated protein kinase kinase kinase 3 (MAP3K3, Homo sapiens, UniProt Q99759)", "note": "Each line is one published result; not all experiments were run side by side."}
{"Compound": "Nc1ncc2c(n1)-c1c([nH]c3ccc(C4=CCOCC4)cc13)CCC2", "assay": "binding, competition with immobilised ligand", "conditions": "1 µM", "quantity": "remaining binding", "result": "100%"}
{"Compound": "O=C(Cc1ccc(OCc2ccccc2)cc1)NC1(C(=O)O)CCN(C(=O)c2ccc(-c3cccc(Cl)c3)cc2)CC1", "assay": "enzyme activity, inhibitor", "conditions": "10 µM", "quantity": "activity vs control", "result": "97%"}
{"Compound": "CN1CC[C@@H](COc2cnc(C#N)cc2-c2ccn3nc(NC(=O)C4CC4)cc3c2)C1", "assay": "enzyme activity, inhibitor", "conditions": "1 µM", "quantity": "inhibition", "result": "2%"}
{"Compound": "CCN1CCN(Cc2ccc(C(=O)Nc3ccc(C)c(NCc4cnc5[nH]ccc5c4OC)c3)cc2C(F)(F)F)CC1", "assay": "binding, competition with immobilised ligand", "conditions": "1 µM", "quantity": "remaining binding", "result": "4.8%"}
{"Compound": "Cn1cc(-c2cnc3ccc(NC(=O)Nc4ccc5sccc5c4)cc3n2)cn1", "assay": "kinase binding, KiNativ profiling, measured: Lys1 peptide", "test system": "PANC-1 lysate", "conditions": "2.5 µM", "quantity": "inhibition", "result": "3.6%"}
{"Compound": "C=CC(=O)N1Cc2nc(-c3cc(-c4cc(Cl)cnc4Cl)c(F)cc3F)n(-c3ccncn3)c2C1", "assay": "cell-free assay, inhibitor", "conditions": "1 µM", "quantity": "inhibition", "result": "5%"}
{"Compound": "Cc1cnc2nc1Nc1cccc(c1)COC/C=C/COCc1cc(ccc1OCCN1CCOCC1)N2", "assay": "binding", "conditions": "0.1 µM", "quantity": "remaining binding", "result": "85%"}
{"Compound": "COc1c(Cl)cccc1Nc1c(-c2ccncc2C#C[C@@]2(C)CCCN2C(=O)/C=C/CN(C)C)[nH]c2c1C(=O)NCC2", "assay": "binding, competition with immobilised ligand", "conditions": "3 µM", "quantity": "remaining binding", "result": "85%"}
{"Compound": "Cc1cc(NC(=O)[C@H](O)c2cc(F)cc(F)c2)ccc1-c1cnc(N)c(C(=O)NC(C)C)c1", "assay": "binding, competition with immobilised ligand", "conditions": "0.1 µM", "quantity": "remaining binding", "result": "98%"}
{"Compound": "NC(=O)[C@@H](O)C[C@H]1CCc2sc3ncnc(O[C@H]4CC[C@H](N5CCOCC5)CC4)c3c21", "assay": "enzyme activity, inhibitor", "conditions": "10 µM", "quantity": "inhibition", "result": "0%"}
{"Compound": "CNC(=O)C1CCN(c2cc(C)c(F)cc2NC(=O)c2ccc(-c3cc(O)ccc3C)c(C)c2)CC1", "assay": "binding, competition with immobilised ligand", "conditions": "1 µM", "quantity": "remaining binding", "result": "100%"}
{"Compound": "CNC(=O)C[C@H](Cc1ccc(C#N)cc1)NC(=O)c1cc(-c2ccc(CN[C@H](C)c3ccc(C)cc3)o2)ccc1Cl", "assay": "enzyme activity, inhibitor", "conditions": "1 µM", "quantity": "activity vs control", "result": "98%"}
{"Compound": "COc1cc(Nc2nc(C)cc(-c3cnn4nc(OC)ccc34)n2)cc(C(F)(F)F)c1", "assay": "inhibitor", "conditions": "1 µM", "how to read": "relative to: control", "quantity": "remaining activity", "result": "72%"}
{"note": "For quick reference, copied from above:"}
{"Compound": "COc1c(Cl)cccc1Nc1c(-c2ccncc2C#C[C@@]2(C)CCCN2C(=O)/C=C/CN(C)C)[nH]c2c1C(=O)NCC2", "assay": "binding, competition with immobilised ligand", "conditions": "3 µM", "quantity": "remaining binding", "result": "85%"}
